# Measured values collected from several papers.
# Compare with care: the assays were run in different laboratories. “And” joins repeats or separate records; there may be more than shown. ± gives the spread as reported.
# APP: Amyloid-beta precursor protein (APP, Homo sapiens, UniProt P05067)
# GABA-A receptor; GABA-A site (alpha1/beta2 interface) with gamma-2 subunit: GABA-A receptor; GABA-A site (alpha1/beta2 interface), with gamma-2 subunit (Homo sapiens, UniProt P14867+P47870)
# Tripartite terminase subunit 3 C-terminal nuclease domain: Tripartite terminase subunit 3, C-terminal nuclease domain (Human betaherpesvirus 5, UniProt P16732)
# nanA: Sialidase A (nanA, Streptococcus pneumoniae, UniProt P62575)
SMILES,target or system,assay,test system,conditions,how to read,measurement,value
FC(F)(F)c1cccc(Nc2nc(NCCOc3ccccc3)nc3[nH]cnc23)c1,"MAPK14 (Homo sapiens, UniProt Q16539)",Z′-LYTE kinase,,5 µM,,inhibition,2% and 5%
Nc1c2c(nc3c1C(c1ccc(Cl)c(Cl)c1)c1ccc(OCC(=O)c4ccc(Cl)cc4)cc1O3)CCCC2 (stereo not shown),APP,"Aβ42 self-aggregation, inhibitor, thioflavin T fluorescence",,1 µM,,inhibition,47%
O=c1ccc2ccccc2o1,"Maoa (Rattus norvegicus, UniProt P21396)","radioligand binding, antagonist",,10 µM,,inhibition,22.7%
COc1cc2c(cc1OCC1CC1)NC(=O)C21CCN(c2cc(NC3CC3)ncn2)CC1,Vero-E6,CellTiter-Glo ATP,,"concentration not given, 72 h, retest 8-point duplicates","relative to: DMSO 0%, hyamine -100%, more negative, more toxic",cytotoxicity efficacy,0%
C[C@H]1N=C(c2ccccc2F)c2cc(Br)ccc2-n2cnc(C(=O)O)c21,peripheral benzodiazepine receptor,binding,,10 µM,,inhibition,18.3 ± 8.7%
Nc1c2c(nc3c1C(c1ccc(Cl)c(Cl)c1)c1ccc(OCC(=O)c4ccccc4)cc1O3)CCCC2 (stereo not shown),APP,"Aβ42 self-aggregation, inhibitor, thioflavin T fluorescence",,0.1 µM,,inhibition,27%
CN1CCN(c2nc(N)c3ccccc3n2)CC1,GABA-A receptor; GABA-A site (alpha1/beta2 interface) with gamma-2 subunit,"binding, radioligand binding",,"0.1 µM, mean of two",,inhibition,6.6%
O=C(Nc1cccnn1)N1CCC(=Cc2cccc(Oc3ccc(C(F)(F)F)cn3)c2)CC1,"ADORA1 (Homo sapiens, UniProt P30542)",binding,,"50 µM, with: [3H]DPCPX",,inhibition,35%
C[C@@]12C(=O)OC(=O)[C@]1(C)[C@H]1CC[C@@H]2O1,"TLR2 (Homo sapiens, UniProt O60603)","SEAP reporter gene, antagonist",HEK-Blue hTLR2,"10 µM, with: Pam3CSK4",,inhibition,> 90%
CC(C)c1cc(Br)c(NC(=O)Nc2cccnc2)c(Br)c1,"P2X purinoceptor 4 (P2RX4, Homo sapiens, UniProt Q99571)","ion current, antagonist, whole-cell patch clamp",HEK293T cells,10 µM,,inhibition,84.05 ± 0.01%
Cn1cccc1-c1cccnc1,"CHRM5 (Homo sapiens, UniProt P08912)",binding,,50 µM,,inhibition,-11.6%
CN(c1ccc2c(c1)B(O)OC2)S(=O)(=O)c1ccc(Cl)cc1,"Genome polyprotein, NS2B-NS3 protease (West Nile virus, UniProt P06935)","enzyme activity, FRET",,"50 µM, with: substrate 50 µM",,inhibition,≤ 10%
CCN(CC)CCNC(=O)c1c(C)[nH]c(/C=C2\C(=O)Nc3ccc(F)cc32)c1C,human coronavirus OC43,virus-induced cell killing,MRC-5,screen,,maximum inhibition,9.25%
c1ccc(C(NCCNC(c2ccccc2)c2ccccc2)c2ccccc2)cc1,"ADAM17 (Homo sapiens, UniProt P78536)",enzyme activity,,"10 µM, Eurofins selectivity panel",,inhibition,-10%
O=c1[nH]c2cc(-c3ccccc3)ccc2c(=O)n1O,Tripartite terminase subunit 3 C-terminal nuclease domain,"endonuclease activity, ELISA",,"20 µM, with: dsDNA",,inhibition,97%
O=C1CN=C(c2ccccc2)c2cc(/N=N/c3ccc(S(=O)(=O)O)cc3)ccc2N1,"HTR3A (Homo sapiens, UniProt P46098)","5-HT-induced current, inhibitor, whole-cell patch clamp",CHO cells,"100 µM, UV light, with: 5-HT",,inhibition,76 ± 4%
Nc1c2c(nc3c1C(c1cccc([N+](=O)[O-])c1)c1ccc(OS(=O)(=O)c4ccc(F)cc4)cc1O3)CCCC2 (stereo not shown),APP,"Aβ42 self-aggregation, inhibitor, thioflavin T fluorescence",,0.1 µM,,inhibition,7.3%
O=c1[nH]c2cc(-c3ccccc3)sc2c(=O)n1O,Tripartite terminase subunit 3 C-terminal nuclease domain,"endonuclease activity, ELISA",,"20 µM, with: dsDNA",,inhibition,97%
COc1cccc(COc2cccc(C(=O)Nc3ccc4c(c3)B(O)OC4)c2)c1,"Genome polyprotein, NS2B-NS3 protease (West Nile virus, UniProt P06935)","enzyme activity, FRET",,"50 µM, with: substrate 50 µM",,inhibition,16 ± 3%
CC(=O)NC1C[C@](OC2C(O)[C@H](Oc3ccc([N+](=O)[O-])cc3)OC(CO)[C@@H]2O)(C(=O)O)OC([C@H](O)[C@H](O)CO)[C@@H]1NC(C)=O (stereo partly shown),nanA,,,"8 µM, pH 6",,inhibition,10 ± 2.3%
O=c1[nH]c2sc3c(c2c(=O)n1O)CCN(Cc1ccccc1)C3,Tripartite terminase subunit 3 C-terminal nuclease domain,"endonuclease activity, ELISA",,"20 µM, with: dsDNA",,inhibition,88%
C#Cc1n[nH]c2c(-c3cn([C@@H](C)c4ccccn4)c(=O)[nH]c3=O)cc(F)cc12,"Cyclin-dependent kinase 7, with cyclin H, MAT1 (CDK7, Homo sapiens, UniProt P50613)","kinase activity, inhibitor",,100 nM,,inhibition,6.9%
CCCCCC(=O)Nc1ccc2c(c1)B(O)OC2,"Genome polyprotein, NS2B-NS3 protease (dengue virus type 2, UniProt P29990)","enzyme activity, FRET",dengue virus serotype 2,"50 µM, with: substrate 50 µM",,inhibition,≤ 10%
Cc1ncc(C)n2nc(/C=C/c3nc(N4CCCC4)cc(N4CCOCC4)n3)nc12,GABA-A receptor; GABA-A site (alpha1/beta2 interface) with gamma-2 subunit,radioligand binding,GABA-A receptor alpha1beta2gamma2 GABA site,10 µM,,inhibition,-9%
O=C(Nc1ccc2c(c1)B(O)OC2)OCc1ccccc1,"Genome polyprotein, NS2B-NS3 protease (dengue virus type 2, UniProt P29990)","enzyme activity, FRET",dengue virus serotype 2,"50 µM, with: substrate 50 µM",,inhibition,≤ 10%
CN1CCN(c2cc(-c3ccncc3)c(-c3ccc4ccccc4c3)nn2)CC1,"P2Y purinoceptor 11 (P2RY11, Homo sapiens, UniProt Q96G91)","antagonist, FLIPR",,10 µM,,inhibition,7.1%
CN(C(=O)n1cnc(-c2ccc[n+]([O-])c2)c1)C1CCCCC1,"GRPR (Homo sapiens, UniProt P30550)",radioligand binding,,50 µM,,inhibition,-2%
COc1ccc(N2C(=O)N(c3c(C)cccc3Cl)Cc3cnc(Nc4ccc(C5CCN(C)CC5)cc4OC)nc32)nc1,"DYRK3 (Homo sapiens, UniProt O43781)",kinase activity,,0.5 µM,,inhibition,7%
O=C(O[C@@H]1Cc2c(O)cc(O)cc2O[C@@H]1c1cc(=O)c(O)c2c(O)c(O)cc([C@H]3Oc4cc(O)cc(O)c4C[C@H]3O)c2c1)c1cc(O)c(O)c(O)c1,"PDIA6 (Homo sapiens, UniProt Q15084)",di-eosin-GSSG reductase activity,,"20 µM, 15 min",,inhibition,inhibited
Nc1c2c(nc3c1C(c1cccc([N+](=O)[O-])c1)c1ccc(OCC(=O)c4ccc(Cl)cc4)cc1O3)CCCC2 (stereo not shown),APP,"Aβ42 self-aggregation, inhibitor, thioflavin T fluorescence",,0.1 µM,,inhibition,15%
Nc1ncnc2c1ncn2[C@@H]1O[C@H](C[C@@H](N)CC[C@H](N)C(=O)O)[C@@H](O)[C@H]1O,"Genome polyprotein, NS5 methyltransferase domain (Zika virus, UniProt Q32ZE1)","NS5 enzyme activity, inhibitor",,3.125 µM,,inhibition,50.8%
O=C(Nc1cnccc1Cl)N1CCN(Cc2ccc3c(c2)OC(F)(F)O3)CC1,"dopamine D4.2 receptor, human",binding,,"10 µM, with: [3H]spiperone",,inhibition,13%
Cc1cc(C)cc(COc2cc3c(cc2OCc2cc(C)cc(C)c2)[C@H]2C[C@](O)(Cc4cn(-c5ccc(S(=O)(=O)F)cc5)nn4)C[C@H](C)N2CC3)c1,"Rab GDP dissociation inhibitor beta, with Rab1A (Homo sapiens, UniProt P50395)","GDI2-Rab1A interaction, NanoLuc complementation",,6.25 µM,,inhibition,87.6%
O=C(Nc1ccc2c(c1)B(O)OC2)c1cccc(OCc2ccc(Cl)cc2)c1,"Genome polyprotein, NS2B-NS3 protease (West Nile virus, UniProt P06935)","enzyme activity, FRET",,"50 µM, with: substrate 50 µM",,inhibition,24 ± 4%
COc1cc(Nc2ncc(F)c(Nc3ccc4c(n3)NC(=O)C(C)(C)O4)n2)cc(OC)c1OC,"PRKCQ (Homo sapiens, UniProt Q04759)",KINOMEscan,,10 µM,,inhibition,30%
N=C(N)Nc1ccc2c(c1)B(O)OC2,"Genome polyprotein, NS2B-NS3 protease (West Nile virus, UniProt P06935)","enzyme activity, FRET",,"50 µM, with: substrate 50 µM",,inhibition,15 ± 2%
CC(=O)NC1C[C@](OCC2O[C@@H](Oc3ccc([N+](=O)[O-])cc3)C(O)C(O)[C@H]2O)(C(=O)O)OC([C@H](O)[C@H](O)CO)[C@@H]1NC(C)=O (stereo partly shown),nanA,,,"8 µM, pH 6",,inhibition,4.2 ± 0.8%
O=c1[nH]c2c3c(sc2c(=O)n1O)CCCC3,Tripartite terminase subunit 3 C-terminal nuclease domain,"endonuclease activity, ELISA",,"20 µM, with: dsDNA",,inhibition,82%
O=C(Nc1ccc2c(c1)B(O)OC2)c1ccccc1OCc1ccccc1,"Genome polyprotein, NS2B-NS3 protease (West Nile virus, UniProt P06935)","enzyme activity, FRET",,"50 µM, with: substrate 50 µM",,inhibition,14 ± 7%
Nc1ccncc1,"Glutamate receptor 2 (Homo sapiens, UniProt P42262)","ion current, negative allosteric modulator, automated patch clamp",HEK293,10 µM,,inhibition,13%
Cc1ccc(-c2c(-c3nn(C)c4ncnc(N5CC[C@H](N6CCCCC6)C5)c34)cnn2C)cc1,human coronavirus OC43,virus-induced cell killing,MRC-5,screen,,maximum inhibition,17.3%
O=C(Nc1ccc2c(c1)B(O)OC2)c1ccc(Oc2ccccc2)cc1,"Genome polyprotein, NS2B-NS3 protease (West Nile virus, UniProt P06935)","enzyme activity, FRET",,"50 µM, with: substrate 50 µM",,inhibition,19 ± 6%
Cc1csc2[nH]c(=O)n(O)c(=O)c12,Tripartite terminase subunit 3 C-terminal nuclease domain,"endonuclease activity, ELISA",,"20 µM, with: dsDNA",,inhibition,84%

# A few entries again:
SMILES,target or system,assay,test system,conditions,how to read,measurement,value
COc1cc2c(cc1OCC1CC1)NC(=O)C21CCN(c2cc(NC3CC3)ncn2)CC1,Vero-E6,CellTiter-Glo ATP,,"concentration not given, 72 h, retest 8-point duplicates","relative to: DMSO 0%, hyamine -100%, more negative, more toxic",cytotoxicity efficacy,0%
C[C@H]1N=C(c2ccccc2F)c2cc(Br)ccc2-n2cnc(C(=O)O)c21,peripheral benzodiazepine receptor,binding,,10 µM,,inhibition,18.3 ± 8.7%
Nc1c2c(nc3c1C(c1ccc(Cl)c(Cl)c1)c1ccc(OCC(=O)c4ccccc4)cc1O3)CCCC2 (stereo not shown),APP,"Aβ42 self-aggregation, inhibitor, thioflavin T fluorescence",,0.1 µM,,inhibition,27%
